Assay results collected from several papers.
Compare with care: the assays were run in different laboratories. Numbers after ± are the reported error.
Cell line: human neutrophils

Substance	test	setting	endpoint	result
CC1=NN(CC(=O)Nc2ccc(Br)cc2)C(=O)CC1c1ccccc1 (racemic)	calcium mobilization, agonist		EC50	1400 ± 380 nM
(+)-episesamin	calcium flux, antagonist	30 min pretreatment, room temperature, added: 5 nM fMLF	IC50	30.4 ± 2.6 µM
COc1cccc(Nc2c(C(=O)C3CCCCC3)c(C)nn(CC(=O)Nc3ccc(Br)cc3)c2=O)c1	calcium flux, agonist		EC50	28900 ± 6600 nM
C[C@@](Cc1c[nH]c2ccccc12)(NC(=O)Nc1ccc([N+](=O)[O-])cc1)C(=O)NCC1(c2ccccn2)CCCCC1	calcium mobilisation, agonist	without probenecid	EC50	910 ± 260 nM
COc1cccc(-c2cc(=O)c3ccccc3o2)c1N	inhibitor, Western blot	50 µM, 20 min pretreatment, added: plasminogen 1 µM	ERK1/2 phosphorylation	inhibited
Cc1nn(CC(=O)Nc2ccc(Br)cc2)c(=O)cc1-c1ccccc1	chemotaxis, agonist	1 h	EC50	2100 ± 530 nM
COc1ccc(C2(CNC(=O)[C@](C)(Cc3c[nH]c4ccccc34)NC(=O)Nc3ccc([N+](=O)[O-])cc3)CCCCC2)nc1	calcium mobilisation, agonist	added: 2.5 mM probenecid	EC50	210 ± 67 nM
CCC[C@H](C(=O)Nc1ccc(Br)cc1)n1nc(C)cc(Cc2cccc(OC)c2)c1=O	calcium mobilization, agonist		EC50	930 nM
C[C@H](CCC(=O)O)[C@H]1CC[C@H]2[C@@H]3[C@H](O)C[C@@H]4C[C@H](O)CC[C@]4(C)[C@H]3CC[C@]12C	calcium mobilization	30 min, added: fMLF 5 nM	IC50	21.4 ± 1.6 µM
COc1cccc(Cc2cc(C)nn([C@@H](C)C(=O)Nc3ccc(Br)cc3)c2=O)c1	calcium mobilization, agonist		EC50	4900 nM
COc1ccc(Cc2c(C)c(C)nn(CC(=O)Nc3ccc(Br)cc3)c2=O)cc1	chemotaxis, agonist	1 h	EC50	510 ± 110 nM
CC1(C)CC[C@]2(C(=O)O)CC[C@]3(C)C(=CC[C@@H]4[C@@]5(C)CC[C@H](O)C(C)(C)[C@@H]5CC[C@]43C)[C@@H]2C1	calcium mobilization	30 min, added: fMLF 5 nM	IC50	1.5 ± 0.18 µM

A few entries again:
Substance	test	setting	endpoint	result
COc1cccc(-c2cc(=O)c3ccccc3o2)c1N	inhibitor, Western blot	50 µM, 20 min pretreatment, added: plasminogen 1 µM	ERK1/2 phosphorylation	inhibited
Cc1nn(CC(=O)Nc2ccc(Br)cc2)c(=O)cc1-c1ccccc1	chemotaxis, agonist	1 h	EC50	2100 ± 530 nM
